Published values gathered from unrelated publications.
A part holds a random share of what one study measured.

Series 1
Target: Interferon regulatory factor 5, full length, phosphomimetic (IRF5, Homo sapiens, UniProt Q13568-2, residues 1-514, K96S/S451D/S453D/S456D/S462D)
Method: protein-binding microarray
Form: double-stranded DNA, one strand shown
Sample: in vitro
Concentration: 250 nM
Setting: 60-bp whole probe
Together with: salmon DNA 0.4 mg/ml
Baseline: random background probes
Direction: higher = stronger binding
Shared flanks, not repeated: GCCTAGCAC … GTCTTGATTCGCTTGACGCTGCTG
| Strand | log fluorescence |
| --- | --- |
| TTAGGACTGCGACTGCTTTAGTGCTAG | -0.436 z-score |
| GACGGTTTCGGTTTCAGGACGTGCTAG | 10.2 z-score |
| TTAGGTATCCTTACCCTTTAGTGCTAG | 0.113 z-score |
| TCAAAGTTCATGTTCAAACTGTGCTAG | 0.161 z-score |
| TTAGATTCCGGTTTCGATTAGTGCTAG | 8.8 z-score |
| TTAGGTTTCGGTCTTGGTTAGTGCTAG | 10.3 z-score |
| GACGGTTTCGCCTATCGGGACGTGCTA | 4.96 z-score |

Series 2
Target: Histone acetyltransferase KAT6A, winged helix 2, GST fusion (KAT6A, Homo sapiens, UniProt Q92794, residues 85-181)
Method: protein binding microarray
Form: double-stranded DNA, one strand shown
Sample: in vitro
Concentration: not given
Setting: 8-mer, flanks averaged, mean of 2 arrays, mostly near background
Baseline: not given
Direction: higher = stronger binding
Target sequence (chain): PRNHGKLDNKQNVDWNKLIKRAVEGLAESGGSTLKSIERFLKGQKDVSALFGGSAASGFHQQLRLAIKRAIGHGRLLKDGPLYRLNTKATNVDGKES
| Strand | E-score |
| --- | --- |
| AACGCTAT | -0.226 |
| TACCTTCA | 0.0624 |
| ACCTTCAG | -0.00604 |
| CCCGCAGC | 0.126 |
| AAAGTTAC | 0.0696 |
| ACGAAGAG | -0.00805 |

Series 3
Substance: PhoQ, residues 284 288 289 292 302 303 NLMGRA
Method: Sort-seq
Measured: YFP reporter
Sample: E. coli
Setting: PhoQ-PhoP variant library
Together with: 10 µM Mg2+
Baseline: high Mg2+ state
Direction: higher = stronger signaling
| target | fold induction |
| --- | --- |
| PhoP, residues 12 14 15 18 19 NYFRM (Escherichia coli, UniProt P23836) | 5.19 |
| PhoP, residues 12 14 15 18 19 QYFSL (Escherichia coli, UniProt P23836) | 3.83 |
| PhoP, residues 12 14 15 18 19 TQALL (Escherichia coli, UniProt P23836) | 11.9 |

Series 4
Target: Sal-like protein 4, full length isoform A (SALL4, Homo sapiens, UniProt Q9UJQ4, residues 1-1053)
Chain of UniProt Q9UJQ4 (whole entry, looked up): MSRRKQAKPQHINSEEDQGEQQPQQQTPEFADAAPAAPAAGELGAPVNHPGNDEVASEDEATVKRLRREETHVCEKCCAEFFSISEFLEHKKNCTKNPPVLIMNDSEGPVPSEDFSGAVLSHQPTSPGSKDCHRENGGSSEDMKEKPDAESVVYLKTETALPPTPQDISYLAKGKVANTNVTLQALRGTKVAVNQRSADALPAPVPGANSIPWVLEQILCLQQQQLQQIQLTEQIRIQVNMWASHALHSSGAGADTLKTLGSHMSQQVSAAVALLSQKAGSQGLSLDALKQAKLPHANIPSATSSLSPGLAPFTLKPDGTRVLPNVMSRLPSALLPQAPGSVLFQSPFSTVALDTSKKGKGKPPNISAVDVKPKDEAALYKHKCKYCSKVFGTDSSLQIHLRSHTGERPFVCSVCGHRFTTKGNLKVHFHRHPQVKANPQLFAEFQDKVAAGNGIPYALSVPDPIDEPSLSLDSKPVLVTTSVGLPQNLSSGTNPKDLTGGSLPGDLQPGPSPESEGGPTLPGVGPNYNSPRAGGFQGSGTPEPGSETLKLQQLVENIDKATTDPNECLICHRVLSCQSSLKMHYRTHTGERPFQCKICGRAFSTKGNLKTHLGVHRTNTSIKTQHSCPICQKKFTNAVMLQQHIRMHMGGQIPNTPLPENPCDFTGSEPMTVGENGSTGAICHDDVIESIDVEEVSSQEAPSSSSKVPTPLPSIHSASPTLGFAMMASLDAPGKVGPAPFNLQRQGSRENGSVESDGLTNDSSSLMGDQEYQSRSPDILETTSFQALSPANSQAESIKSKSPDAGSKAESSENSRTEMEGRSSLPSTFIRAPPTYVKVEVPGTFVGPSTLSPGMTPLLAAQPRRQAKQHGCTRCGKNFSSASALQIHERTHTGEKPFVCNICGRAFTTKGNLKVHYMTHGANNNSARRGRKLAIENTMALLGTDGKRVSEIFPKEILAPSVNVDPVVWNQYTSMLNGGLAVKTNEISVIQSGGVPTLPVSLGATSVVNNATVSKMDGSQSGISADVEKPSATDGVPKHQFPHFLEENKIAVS
Method: universal PBM
Form: double-stranded DNA, one strand shown
Sample: in vitro
Concentration: 600 nM
Setting: 8-mer, flanks averaged, mean of replicates
Direction: higher = stronger binding
| Strand | E-score |
| --- | --- |
| AAGTTACG | 0.133 |
| CCAATACC | -0.102 |
| CTCCATGA | 0.0769 |
| ATCGCTCC | -0.0716 |
| AGAGGACA | -0.0351 |
| AAATGACT | 0.265 |

A few entries again (series 1):
| Strand | log fluorescence |
| --- | --- |
| GACGGTTTCGGTTTCAGGACGTGCTAG | 10.2 z-score |
